Measurements from different studies.
Parts stem from different laboratories: compare values within a part only.

Series 1 — technique: RNAcompete; form: RNA; medium: in vitro; tested at: 20 nM; setting: 7-mer, probes averaged, single round; baseline: mean of 7-mers; reading: higher = stronger binding; endpoint: 7-mer Z-score
Target: PABPC1L2, full length, GST fusion (mouse, UniProt A0ABA7IW68)
Residues (chain): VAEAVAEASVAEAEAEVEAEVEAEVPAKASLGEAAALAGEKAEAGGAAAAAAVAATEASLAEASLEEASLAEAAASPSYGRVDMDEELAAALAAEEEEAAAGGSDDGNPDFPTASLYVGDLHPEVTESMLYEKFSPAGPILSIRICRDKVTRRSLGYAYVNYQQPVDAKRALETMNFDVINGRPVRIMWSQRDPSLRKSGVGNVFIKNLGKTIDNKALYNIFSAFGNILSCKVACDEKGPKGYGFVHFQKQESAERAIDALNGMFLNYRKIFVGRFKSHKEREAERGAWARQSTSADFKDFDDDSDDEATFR
ACUAUUU: -0.151
UCGCCUC: -0.507
UAGUGGG: 0.274
GAUCAUA: -0.0156
UGCUUGA: -0.157
ACCUCUC: -0.278

Series 2 — technique: protein-binding microarray; form: double-stranded DNA, one strand shown; medium: in vitro; tested at: 0.8 µM; setting: whole 60-bp probe, no competitor; reading: higher = stronger binding; endpoint: fluorescence intensity; all sequences stand within: … GTCTTGATTCGCTTGACGCTGCTG
Target: Centromere-binding protein 1, full length, N-terminal tag (CBF1, Saccharomyces cerevisiae, UniProt P17106, residues 1-351)
UniProt P17106, sequence (whole entry, looked up): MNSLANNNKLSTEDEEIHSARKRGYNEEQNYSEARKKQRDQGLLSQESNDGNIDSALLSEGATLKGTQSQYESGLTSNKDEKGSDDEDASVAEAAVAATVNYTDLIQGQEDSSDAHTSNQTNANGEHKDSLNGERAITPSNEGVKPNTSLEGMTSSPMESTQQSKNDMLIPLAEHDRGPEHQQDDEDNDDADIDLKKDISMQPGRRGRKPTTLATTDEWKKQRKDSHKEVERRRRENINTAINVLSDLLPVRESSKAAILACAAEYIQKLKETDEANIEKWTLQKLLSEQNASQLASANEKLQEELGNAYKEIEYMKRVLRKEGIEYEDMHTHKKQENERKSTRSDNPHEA
CTATAATGTATGGGTGGTGTGTACACCAAGGTATTC: 503 a.u.
GAAAGGTGTAAAGGACATCAGAGAGGAAAATATTAG: 522 a.u.
CTAGGAAAAAGATACCACGTTCTTCTGAACATGTTC: 655 a.u.
GAAATGAAATAAGAAGTGATGATGCTAAAGTGGTAG: 543 a.u.
GAATTGGAAACCAAACAGGAGATACAAATGGGTTAG: 537 a.u.
GAATGCTTTACAACTCATCTCCTGTAATTTCCATAG: 516 a.u.
CTATATCTTCTCTTTCACGATATAGATTCACGCTTC: 569 a.u.
CTAGCAAAGGGGTAGTACGTGGCACCTCCTAAATTC: 490 a.u.

Series 3 — technique: RNA Bind-n-Seq; form: RNA; medium: in vitro; tested at: 365 nM; baseline: no-protein control; reading: higher = stronger binding; endpoint: RBNS enrichment (R)
Target: RNA binding protein fox-1 homolog 2, RRM domain, GST-SBP tag (RBFOX2, Homo sapiens, UniProt O43251-10, residues 100-194)
Setting: natural RNA segment, single round, ends assumed
All sequences stand within: GGGAGUUCUACAGUCCGACGAUC … UGGAAUUCUCGGGUGCCAA
Construct (chain): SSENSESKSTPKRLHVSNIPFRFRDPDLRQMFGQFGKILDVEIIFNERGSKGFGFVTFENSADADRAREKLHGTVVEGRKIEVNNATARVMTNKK
CUAUGGCUCCCUUCCCUUCUUACUGGUUCAGGGUAGCUUAUGCCUCAGGGUCAGAGCCCCUGAUCUGCUGAUGUUUGGUUGGGUGUCCAUGAGGGCCCCUCCCACCCAGU: 0.298
UGUACAUUUAAGUCUGUAUUAUAAUAAGCAAAAAGAUUGUGUGUAUGUAUGUUUAAUAUAACAUGACAGGCACUAGGACGUCUGCCUUUUUAAGGCAGUUCCGUUAAGGG: 0.99
AAAACGUCAGCCUCUGCCCCACCCUCCCUCCUGCCCAAAGUGAAUUUGGUACUCAGAAAAGAACUGUUUAUACCACUCACCUUUCUCCCAGCAUGUACUCACUGUGGGCA: 5.39
UCACUCCGGACAGUCCGACUUCCGUGUGGAAUGUCAGUCAGUCGGCUAGAGGAGUGGCAUCUGGAGCUCAGAAACGUGAGAGACUAUUUGUGUACAAAAGGCAGGAAAAA: 5.07
ACACUUGGAUGCAGUGCGUCUGAAGUGCUAAUCAGUUGUAACAAUAGCACAAAUCGAACUUAGGAUUUGUUUCUUCUCUUCUGUGUUUCGAUUUUUGAUCAAUUCUUUAA: 0.29
GACCUGGUGCCUGGCGCUGCCUUCAGCAGGCAGCAGGCAGCCUCCUGCACACUGGCUUUUUUAGUCAUUUAUGGGCAAAAAGAGUUAAAGUAAAACUUUGCAAAUCCCGA: 0.296
GGUGGGGGUCCUCUCUCCUGCCCCAGCUUCCACUCAGCCACCACAGUUGCCACACCAUGGGGUGGAGACGUGGGUCACCACGGGCUUGGGAGCAAGCGCCUUCUGCAGCA: 1.7
UCUGACAAAGUGUGCCGGUCUAACAAUAAAAUAGGGUUUUGUAAUCUUCUGGUUGGUAAAAGAUAUGUUCCGGAGAAUAUAGGAACAUGCCCGGAGAGACCUAACCUGUA: 0.438
AUUUGGCCAGAAAAUGCAGCCAUCCUUGUGUGAUUAGGAGGGUUUCAGGGGCCACUGGACUAUUUGCAAGGUGACAGGGACUGGAGCCAUGGCUCAGAGGUGAUUCGGGC: 1.12

Other studies, line by line
PhoQ, residues 284 288 289 292 302 303 SCEHLI  fold induction (PhoP, residues 12 14 15 18 19 STHWV (Escherichia coli, UniProt P23836); Sort-seq, refers to: YFP reporter; E. coli; PhoQ-PhoP variant library, together with: 10 µM Mg2+; baseline: high Mg2+ state, higher = stronger signaling): 0.717

For quick reference, copied from above (series 2):
CTATATCTTCTCTTTCACGATATAGATTCACGCTTC: 569 a.u.
